Measured values pooled from the literature.
Each numbered part is a random draw from the data of one study; scales do not carry over between parts. Positions count from the first letter of the parent shown.

Sample 1 — technique: protein-binding microarray; form: double-stranded DNA, one strand shown; sample: in vitro; concentration: 2540 nM top; notes: 60-bp whole probe; added: salmon DNA 0.4 mg/ml; reference: random background probes; reading: higher = stronger binding; shared flanks, not repeated: GCCTAGCAC … GTCTTGATTCGCTTGACGCTGCTG
Target: Interferon regulatory factor 3, full length, phosphomimetic (IRF3, Homo sapiens, UniProt Q14653, residues 1-427, S386D/S396D/S398D/S402D/T404D/S405D)
Chain of UniProt Q14653 (whole entry, unmodified, looked up): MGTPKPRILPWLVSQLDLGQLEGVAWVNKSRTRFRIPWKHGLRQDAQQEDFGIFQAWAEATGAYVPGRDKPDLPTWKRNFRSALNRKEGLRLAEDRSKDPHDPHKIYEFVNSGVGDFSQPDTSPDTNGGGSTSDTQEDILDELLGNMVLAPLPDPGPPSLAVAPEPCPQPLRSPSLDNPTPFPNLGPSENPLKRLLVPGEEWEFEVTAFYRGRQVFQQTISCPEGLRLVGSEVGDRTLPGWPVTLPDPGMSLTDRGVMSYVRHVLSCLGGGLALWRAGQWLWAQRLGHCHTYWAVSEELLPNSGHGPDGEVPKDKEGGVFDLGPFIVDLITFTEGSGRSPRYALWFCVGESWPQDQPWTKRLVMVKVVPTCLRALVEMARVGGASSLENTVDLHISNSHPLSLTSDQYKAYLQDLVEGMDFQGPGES
Sequence | fitted relative affinity [z-score]
TTAGGTCTCCTTCGCCTTTAGTGCTAG | 0.148
GACCTCGTCTCTATCAAAAAGTGCTAG | 0.376
TTAGGACTGGCCTTTCGGTTAGTGCTA | -0.294
GGCGATATCAGACTGGAGACGTGCTAG | -0.0532
TCACCTCTCCCCTCTTGTACTGTGCTA | 0.7
ATTTTTTTCTAAGTAAACCCGTGCTAG | 1.08

Sample 2 — technique: RNA Bind-n-Seq; form: RNA; sample: in vitro; concentration: 365 nM; reference: no-protein control; reading: higher = stronger binding
Target: RNA binding protein fox-1 homolog 2, RRM domain, GST-SBP tag (RBFOX2, Homo sapiens, UniProt O43251-10, residues 100-194)
Notes: natural RNA segment, single round, ends assumed
Residues (chain): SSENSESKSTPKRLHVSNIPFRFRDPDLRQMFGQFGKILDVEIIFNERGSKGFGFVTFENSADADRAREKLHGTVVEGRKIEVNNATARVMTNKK
Sequence | RBNS enrichment (R)
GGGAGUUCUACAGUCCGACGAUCUGUAUGGCUUACAUCCUGGAAAUUACCUGAUAAUAAAGCAAGUAAAGGUGUAAGGUUUCCUAAGGGAUUACAACACAGUGGUUUCCUGGUCUCUCUCCCUGUCAUCAAUCUGGAAUUCUCGGGUGCCAA | 0.341
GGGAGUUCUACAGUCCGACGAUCCAAAUGUGAAUAUGUGUAAAAGUGCUUUUCAGAACUGCAUUACUAUGAGAAAACAUCAAAACUGCUGUAGUUUUCCAUUUCUACUGUAUUUCAGUUGCAACCUAUUUUUAUGGAAUUCUCGGGUGCCAA | 0.801
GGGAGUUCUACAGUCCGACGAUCAAGUCUGUGAGGGGAGAGGUUUUACAAGCCAGACAGGCCUGGGGGACUGCAGUCCCCAAGGAGACCCUGCCACAUGCUGGCCCUUUGAGUGAGAAUGCUGCAUCUUUCUAUGGAAUUCUCGGGUGCCAA | 2.21
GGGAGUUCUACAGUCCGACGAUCAAGAGCCAAAGAUAACCACAGCCACAGCCUGUGGAGACCAGGGUUGGAAGCCAGGUGCAGGGCCAGGCAUCUGCAUUGUGGGAUGUUAAUGGCACUUUUGUCUUGUAGCUUGGAAUUCUCGGGUGCCAA | 0.561
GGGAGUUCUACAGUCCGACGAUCAGAAUUGAAAGCCUUCGUAUCUUGAACCUCCCAACAUUUUUCUUAUGGCUGUUGAAAAGUAUAGAGCUAAAUUGAUUUAAUUACACUUUCCUUUGUACUUUAAAAAAAAGUGGAAUUCUCGGGUGCCAA | 0.8
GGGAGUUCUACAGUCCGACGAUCCUUAUCCACCACGCUAUUAUAGUUUCCGUUGUCCUCCACCAGCAUUUCCCUUACUCUGAAGUUCCGGCAUUCACAUCAUUCAUGUUUUCUUUUGUCUUUUAGCUAAAGGAUGGAAUUCUCGGGUGCCAA | 0.568
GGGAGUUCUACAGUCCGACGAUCCUCAUUUACAACUCUGAUUUUCAAACAGAAAAAGUCUUUACAGCUAUAUAGGGGCACCCCAGACGCUGCAGUGACUUCAGCUAUCAACAAACUGUUAACCAUGUACAAUAUGGAAUUCUCGGGUGCCAA | 0.848

Sample 3 — target: CCNE2, cyclin fold, Cln2 fusion (human); technique: yeast growth competition, sequencing; sample: yeast; notes: weak parent motif; reference: not given; reading: higher = stronger binding
Starting sequence: CDC6 docking peptide (human); TLKGRRLVFDNQL; partner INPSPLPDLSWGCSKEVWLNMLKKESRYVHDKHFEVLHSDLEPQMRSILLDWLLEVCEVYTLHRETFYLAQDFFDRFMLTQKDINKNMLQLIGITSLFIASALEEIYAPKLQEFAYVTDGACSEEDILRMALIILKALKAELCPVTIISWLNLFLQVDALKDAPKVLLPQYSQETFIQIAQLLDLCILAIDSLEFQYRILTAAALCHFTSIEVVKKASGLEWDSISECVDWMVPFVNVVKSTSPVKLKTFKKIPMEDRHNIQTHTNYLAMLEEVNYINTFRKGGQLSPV
Substitution | normalised enrichment score
N11A | 0.781
R5P | -0.7
V8I | 0.574
K3A | 0.382
L13G | 0.0604

Single results of other studies
Molecule | target | test | system | conditions | scale | endpoint | result
PhoQ, residues 284 288 289 292 302 303 AQGLTV | PhoP, residues 12 14 15 18 19 LHSVW (Escherichia coli, UniProt P23836) | Sort-seq, refers to: YFP reporter | E. coli | PhoQ-PhoP variant library, added: 10 µM Mg2+ | reference: high Mg2+ state, higher = stronger signaling | fold induction | 7.97

Some of these lines once more (sample 1):
Sequence | fitted relative affinity [z-score]
ATTTTTTTCTAAGTAAACCCGTGCTAG | 1.08
GACCTCGTCTCTATCAAAAAGTGCTAG | 0.376
